Results of several laboratories.
Parts stem from different laboratories: compare values within a part only. Positions count from the first letter of the parent shown.
UniProt Q8H174, sequence (whole entry, looked up): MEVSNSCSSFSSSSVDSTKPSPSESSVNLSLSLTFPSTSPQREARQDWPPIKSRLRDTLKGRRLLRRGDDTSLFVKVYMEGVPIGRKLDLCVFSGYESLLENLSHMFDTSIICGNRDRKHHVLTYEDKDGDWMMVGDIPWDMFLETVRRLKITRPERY
UniProt Q8LAL2, sequence (whole entry, looked up): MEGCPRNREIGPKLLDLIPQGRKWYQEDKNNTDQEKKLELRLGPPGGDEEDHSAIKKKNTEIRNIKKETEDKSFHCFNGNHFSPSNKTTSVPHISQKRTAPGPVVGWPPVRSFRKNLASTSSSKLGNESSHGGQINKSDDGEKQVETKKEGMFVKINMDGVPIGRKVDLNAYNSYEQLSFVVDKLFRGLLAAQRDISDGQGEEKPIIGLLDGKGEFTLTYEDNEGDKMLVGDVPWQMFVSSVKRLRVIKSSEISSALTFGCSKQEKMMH
UniProt Q9ZTX9, sequence (whole entry, looked up): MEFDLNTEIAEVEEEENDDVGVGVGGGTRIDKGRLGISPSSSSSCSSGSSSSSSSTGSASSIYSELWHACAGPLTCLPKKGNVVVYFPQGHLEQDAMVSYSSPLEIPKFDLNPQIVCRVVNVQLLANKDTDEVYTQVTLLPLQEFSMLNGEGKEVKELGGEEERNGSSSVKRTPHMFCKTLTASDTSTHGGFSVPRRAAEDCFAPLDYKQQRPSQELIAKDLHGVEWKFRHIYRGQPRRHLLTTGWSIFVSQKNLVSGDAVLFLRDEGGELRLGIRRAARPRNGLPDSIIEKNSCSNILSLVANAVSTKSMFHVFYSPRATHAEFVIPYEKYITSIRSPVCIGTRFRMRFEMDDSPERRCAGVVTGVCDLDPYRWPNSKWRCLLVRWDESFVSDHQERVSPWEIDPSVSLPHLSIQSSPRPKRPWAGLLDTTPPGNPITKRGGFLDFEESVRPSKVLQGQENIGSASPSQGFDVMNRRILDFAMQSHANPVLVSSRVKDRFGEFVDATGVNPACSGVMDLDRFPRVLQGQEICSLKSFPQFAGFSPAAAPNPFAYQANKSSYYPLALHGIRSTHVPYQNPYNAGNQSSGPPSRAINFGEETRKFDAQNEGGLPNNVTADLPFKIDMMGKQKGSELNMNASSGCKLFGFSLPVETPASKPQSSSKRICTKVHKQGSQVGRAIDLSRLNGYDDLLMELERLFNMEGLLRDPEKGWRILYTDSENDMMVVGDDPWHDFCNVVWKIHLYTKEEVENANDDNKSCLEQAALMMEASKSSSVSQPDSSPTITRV
UniProt Q8RYC6, sequence (whole entry, looked up): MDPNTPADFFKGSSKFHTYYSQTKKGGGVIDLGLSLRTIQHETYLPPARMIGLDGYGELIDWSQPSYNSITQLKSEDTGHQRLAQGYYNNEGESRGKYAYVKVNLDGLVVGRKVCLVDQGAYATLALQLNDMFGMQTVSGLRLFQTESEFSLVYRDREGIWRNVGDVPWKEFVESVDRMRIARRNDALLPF

Set 1
Target: ABI1, truncated, D143A, DHFR fusion (Arabidopsis thaliana)
Technique: DHFR PCA, deep sequencing
Sample: yeast
Setting: methotrexate growth selection, single substitutions
With: (+)-ABA 0.032 µM
Baseline: wild-type fitted maximum
Reading: higher = stronger binding
Starting sequence: PYL1, truncated, DHFR fusion (Arabidopsis thaliana); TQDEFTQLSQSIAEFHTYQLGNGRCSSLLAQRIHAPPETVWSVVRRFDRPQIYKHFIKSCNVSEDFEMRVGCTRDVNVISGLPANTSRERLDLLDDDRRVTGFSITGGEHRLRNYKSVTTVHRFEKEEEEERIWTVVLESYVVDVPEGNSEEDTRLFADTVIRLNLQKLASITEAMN
`R155M`: “relative binding score” 7.32%.
For `S11V`, “relative binding score” read 33.2%.
For `F5Y`, “relative binding score” read 21.7%.
`F157D` — result for “relative binding score”: 7.89%.
Under “relative binding score”, `Q19A` is recorded as 29.1%.
Under “relative binding score”, `D144L` is recorded as -4.7%.
`E14N` — result for “relative binding score”: -2.83%.
`K116W`: “relative binding score” -3.28%.
`N61E`: “relative binding score” 45.1%.
`I133H` — result for “relative binding score”: 21%.
`G23P`: “relative binding score” -2.42%.
`E125T`: “relative binding score” 36.2%.
Under “relative binding score”, `N22Y` is recorded as 19.3%.
`S27V` — result for “relative binding score”: 2.5%.
For `T6D`, “relative binding score” read 37.6%.
For `A30G`, “relative binding score” read 8.77%.
For `L169G`, “relative binding score” read -1.81%.

Set 2
Molecule: B1 (IAA9)
Technique: two-hybrid
Reading: higher = firmer interaction
B1: IAA9 (Arabidopsis thaliana, UniProt Q38827); chain MSPEEELQSNVSVASSSPTSNCISRNTLGGLKEHNYLGLSDCSSVGSSTLSPLAEDDKATISLKATELTLGLPGSQSPARDTELNLLSPAKLDEKPFFPLLPSKDEICSSSQKNNASGNKRGFSDTMDQFAEAKSSVYTEKNWMFPEAAATQSVTKKDVPQNIPKGQSSTTNNSSSPPAAKAQIVGWPPVRSYRKNTLATTCKNSDEVDGRPGSGALFVKVSMDGAPYLRKVDLRSYTNYGELSSALEKMFTTFTLGQCGSNGAAGKDMLSETKLKDLLNGKDYVLTYEDKDGDWMLVGDVPWEMFIDVCKKLKIMKGCDAIGLAAAPRAMEKSKMRA
The positive tests was 0 (IAA31 (Arabidopsis thaliana, UniProt Q8H174); baseline: out of 2 tests).
IAA32 (Arabidopsis thaliana, UniProt Q8RYC6); baseline: out of 4 tests — positive tests: 1.
It gave 4 for positive tests (IAA26 (Arabidopsis thaliana, UniProt Q8LAL2); baseline: out of 4 tests).
The positive tests was 0 (ARF4 660-788 (Arabidopsis thaliana, UniProt Q9ZTX9); baseline: out of 2 tests).
For IAA17 (Arabidopsis thaliana, UniProt P93830); baseline: out of 2 tests: positive tests read 2.

Set 3
Target: CCNB3, cyclin fold, Cln2 fusion (human)
Technique: yeast growth competition, sequencing
Sample: yeast
Setting: weak parent motif
Baseline: not given
Reading: higher = stronger binding
Starting sequence: RBL1 docking peptide (human); GSAKRRLFGEDPP
Under “normalised enrichment score”, `G9C` is recorded as 1.27.
`G9P`: “normalised enrichment score” 1.18.
`G1I` — result for “normalised enrichment score”: 1.47.
Under “normalised enrichment score”, `A3H` is recorded as 0.272.
For `F8C`, “normalised enrichment score” read 0.28.
`A3V`: “normalised enrichment score” 1.45.
`P13G` — result for “normalised enrichment score”: 0.17.
`A3G`: “normalised enrichment score” -0.0161.
For `K4P`, “normalised enrichment score” read 0.239.
For `R6Q`, “normalised enrichment score” read 0.0995.
For `F8N`, “normalised enrichment score” read -0.105.
For `P12I`, “normalised enrichment score” read 0.405.
For `S2K`, “normalised enrichment score” read 0.294.
For `P12T`, “normalised enrichment score” read 1.03.
For `R6P`, “normalised enrichment score” read -0.105.
Under “normalised enrichment score”, `R5G` is recorded as 0.238.
`S2W` — result for “normalised enrichment score”: -0.0537.
Under “normalised enrichment score”, `F8T` is recorded as 0.222.
Under “normalised enrichment score”, `D11Q` is recorded as 0.469.
`F8R` — result for “normalised enrichment score”: -0.0248.
`F8E` — result for “normalised enrichment score”: -0.46.
`K4D` — result for “normalised enrichment score”: 0.316.
For `G1Y`, “normalised enrichment score” read 1.51.
Under “normalised enrichment score”, `K4R` is recorded as 1.65.
Under “normalised enrichment score”, `R6M` is recorded as 0.229.

Set 4
Target: RING finger protein unkempt homolog, zinc fingers 1-6, SBP tag (UNK, Homo sapiens, UniProt Q9C0B0, residues 30-357)
UniProt Q9C0B0, sequence (30-357, looked up): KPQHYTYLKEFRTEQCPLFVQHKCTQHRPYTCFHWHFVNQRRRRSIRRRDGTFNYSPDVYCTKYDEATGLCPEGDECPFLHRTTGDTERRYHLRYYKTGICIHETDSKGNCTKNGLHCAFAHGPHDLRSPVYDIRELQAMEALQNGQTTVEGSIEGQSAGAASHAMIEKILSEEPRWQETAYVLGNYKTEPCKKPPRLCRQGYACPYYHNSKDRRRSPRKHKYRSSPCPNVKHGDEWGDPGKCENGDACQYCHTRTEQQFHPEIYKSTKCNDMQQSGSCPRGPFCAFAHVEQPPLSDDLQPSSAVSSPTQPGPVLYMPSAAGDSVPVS
Technique: RNA Bind-n-Seq
Form: RNA
Sample: in vitro
Concentration: 100 nM
Setting: RNA with constant flanks, vertebrate orthologous sites, ends assumed
Baseline: input RNA pool
Reading: higher = stronger binding
The bound/input enrichment of `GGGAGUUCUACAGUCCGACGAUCUUCCAUCUUGAGUUGGCCUCAUAUCUGUAGAAGAUGUAACAUUUUGCAACAAAUGUAUUAUAUCUAGUUAAGCUGAGUUUCAUAUUUUUUUAUUAGUCUGUAAAUAAAGAUGGGGUCUUACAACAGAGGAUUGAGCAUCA` is reported as 0.975 ratio.
With `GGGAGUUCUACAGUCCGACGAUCUCAAUCUCUUUUCCCCUGUCCUGAUUUUAAAAGCCCCCUCCUUUUUUUUUUUUCUUUUUUUAGGCAUAUGUAGUAAUAUUAGAAACAUUUAAUUUGGGAAACUUUGAUUCUUGAAAGAGACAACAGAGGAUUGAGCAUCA` the bound/input enrichment was 1.63 ratio.
With `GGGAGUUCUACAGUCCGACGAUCAGAUCUACUUCAUGCCCUGGACGCCGUACCGCACGGACACCCUCAUCGAGUACUCCUCCCUGGACGACUUCCAGAACUCGCGGCAGACGGUCACCUACAAGCUGCCUCACCGCGUGGACGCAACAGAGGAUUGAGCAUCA` the bound/input enrichment was 0.302 ratio.
With `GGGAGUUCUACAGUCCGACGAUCUCCUCUGAACCCCAUAUCUUCUGUUUCAUAGUGCAGAAGUACUCUUUUCAAUUCUAUUAUUAGUGGACUUGUUUUAAUUUUAGGGAAACUUUCAGUACAGAUACUGUGAGCUUACAUGGACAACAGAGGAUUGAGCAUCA` the bound/input enrichment was 2.04 ratio.
The bound/input enrichment of `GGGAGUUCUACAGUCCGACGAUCUAUCUUUAGGAUGAAGCUCUUACACCAAGUGUCACGAGUCUGGAGAACAGAUGGGUUGAGUAGUUGUUCUUAUAAAUUAGUAUCUGUGGAACACAAUCCUUUAUAUAUCAACAUCACAGUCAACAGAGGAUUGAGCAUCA` is reported as 0.907 ratio.
`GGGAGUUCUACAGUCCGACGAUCGUGACUUUGGACGUCCGUUCAUCCUCCGUGUAGGGUUUACUUAGUGACGGGCCUUCCACUUUUGGUUUUUUCUUCUGGACAGGAGGCCUCUGCCGCAACCAUGUUACGCCAGAUUAUCGGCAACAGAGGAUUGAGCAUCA` gave a bound/input enrichment of 0.281 ratio.
`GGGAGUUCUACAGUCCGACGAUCUAGUGGGUGCAGCAUAGAAACAUCCAAGGUACUGACUGCAGCUUACAUACUUCAUUAGUAUGAAAGUCACAGUUCUCUAUGCGAAGAUACAUAUCUUUAAGUAAAUUACGUCUUUAACUUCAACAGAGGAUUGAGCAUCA` has a bound/input enrichment of 0.467 ratio.
The bound/input enrichment of `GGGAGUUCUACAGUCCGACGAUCAGCAACUCAAGGAUUCAGGACUGGUUUUACAAAUAUACCAAGUAGAUAUGGAACUAACAAUAGAAUUGGACAACCAAGACCAUGAUAUGCUCUAAUUUAAUUUAUUUUUAUCAGGAAUAUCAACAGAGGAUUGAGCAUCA` is reported as 0.485 ratio.
The bound/input enrichment of `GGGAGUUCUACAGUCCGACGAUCCCUCUUAAUCCCAUAUCUUCUGUUUCGUAGUGCUGAAGUCUUAAACUUAAGUUACUAUAUUAGUGACCUUAUUUUAAUUUUAGAGAUACCUUCAGUAUGAAUACUGUGAGCUUACAUGGACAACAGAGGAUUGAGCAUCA` is reported as 0.771 ratio.
For `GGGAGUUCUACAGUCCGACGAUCGCGGGGAUGGCCCGAUCCCACCGCUGUUUAUUCUGUAAACUUCAACCUGUACAUAAUGUUUAGCAUUCCUAUUGUAACAAAAUUAAUUUUUACAAAAUAAAUUAUAUUUCCUAGUCUAAUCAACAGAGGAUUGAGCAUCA`, the bound/input enrichment was 0.899 ratio.
The bound/input enrichment of `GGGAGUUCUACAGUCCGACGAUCGCACAUGCCACUGUCGCCAAAAACGAGCUACCACUUUCCAAAUUUCAUUCAGAGCCAUUUUAGUGUUUUCCUAUUCCCUACCCCUCCCACUACUUUCAAUGAUGAAAUACCCUAAGUUCUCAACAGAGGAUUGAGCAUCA` is reported as 2.05 ratio.

Set 5
Target: ATF2, bZIP domain (human)
Technique: DHFR protein complementation
Sample: yeast
Setting: single substitutions, most at no-binding floor
Baseline: wild-type JUN-FOS pair
Reading: higher = stronger binding
Starting sequence: JUN, bZIP domain (human); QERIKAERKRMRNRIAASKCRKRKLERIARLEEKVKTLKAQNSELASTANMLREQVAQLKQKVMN; partner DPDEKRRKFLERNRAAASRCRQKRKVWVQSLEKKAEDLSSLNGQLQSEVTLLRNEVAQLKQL
For `R53W`, the binding fitness was -1.52 natural log.
`K39Y` gave a binding fitness of -1.44 natural log.
`L52R` gave a binding fitness of -1.5 natural log.
The binding fitness of `V35I` is reported as -1.17 natural log.
The binding fitness of `N42T` is reported as -1.5 natural log.
For `L45N`, the binding fitness was -1.53 natural log.
`E32F` has a binding fitness of -1.54 natural log.
With `K36F` the binding fitness was -1.32 natural log.
For `Q58P`, the binding fitness was -1.51 natural log.
The binding fitness of `L38W` is reported as -1.49 natural log.
For `L45M`, the binding fitness was -1.47 natural log.
`Q55L` gave a binding fitness of -1.43 natural log.
For `Q58R`, the binding fitness was -1.5 natural log.
`L38E` gave a binding fitness of -1.54 natural log.
With `T37Y` the binding fitness was -1.28 natural log.
The binding fitness of `K36V` is reported as -1.4 natural log.
The binding fitness of `V35E` is reported as -1.52 natural log.
